Published values of several laboratories.
A part holds a random share of what one study measured. Changes are numbered by the printed parent chain.

Set 1
Target: CEBPA, bZIP domain (human)
Method: DHFR protein complementation
Medium: yeast
Notes: single substitutions, most at no-binding floor
Relative to: wild-type JUN-FOS pair
Direction: higher = stronger binding
Measurement: binding fitness
Starting sequence: JUN, bZIP domain (human); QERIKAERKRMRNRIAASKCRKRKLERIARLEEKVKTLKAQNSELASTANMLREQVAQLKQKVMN; partner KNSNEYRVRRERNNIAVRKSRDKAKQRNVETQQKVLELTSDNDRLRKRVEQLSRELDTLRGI
A49L: -1.37 natural log
V56L: -1.41 natural log
V35R: -1.4 natural log
A46Y: -1.56 natural log
E44A: -1.47 natural log
I28F: -1.44 natural log
S43M: -1.42 natural log
N42I: -1.58 natural log
T48K: -1.42 natural log
K36S: -1.47 natural log
T48H: -1.42 natural log
L45F: -1.44 natural log
A40V: -1.53 natural log
L52E: -1.51 natural log
S47Q: -1.34 natural log

Set 2
Target: ABI1, truncated, D143A, DHFR fusion (Arabidopsis thaliana)
Method: DHFR PCA, deep sequencing
Medium: yeast
Notes: methotrexate growth selection, single substitutions
With: (+)-ABA 0.11 µM
Relative to: wild-type fitted maximum
Direction: higher = stronger binding
Measurement: relative binding score
Starting sequence: PYL1, truncated, DHFR fusion (Arabidopsis thaliana); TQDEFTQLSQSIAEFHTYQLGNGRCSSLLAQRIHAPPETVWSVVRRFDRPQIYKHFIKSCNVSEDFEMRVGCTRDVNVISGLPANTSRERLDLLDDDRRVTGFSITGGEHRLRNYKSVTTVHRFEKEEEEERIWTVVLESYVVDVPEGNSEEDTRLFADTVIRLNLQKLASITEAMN; partner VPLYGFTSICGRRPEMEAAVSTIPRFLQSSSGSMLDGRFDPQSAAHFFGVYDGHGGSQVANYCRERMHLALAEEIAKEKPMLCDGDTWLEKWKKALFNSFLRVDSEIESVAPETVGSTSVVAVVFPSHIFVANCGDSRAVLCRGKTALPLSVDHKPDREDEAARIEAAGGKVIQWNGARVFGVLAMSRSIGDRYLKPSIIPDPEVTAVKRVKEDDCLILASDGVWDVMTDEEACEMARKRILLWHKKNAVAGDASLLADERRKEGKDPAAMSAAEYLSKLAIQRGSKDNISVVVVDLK
L29D: 4.28%
S42D: 17.3%
S11V: 41.8%
E14N: 5.82%
N22L: 22.4%
G23P: -1.02%
N61E: 51.2%
F157D: -1.23%
N22Y: 23.7%
H34Q: 41.2%
R155M: 9.62%
S27V: 1.39%

Set 3
Target: CCNB1, cyclin fold, Cln2 fusion (human)
Method: yeast growth competition, sequencing
Medium: yeast
Notes: strong parent motif
Relative to: not given
Direction: higher = stronger binding
Measurement: normalised enrichment score
Starting sequence: MICAL3 docking peptide (human); LQLRRQLSFSEDS; partner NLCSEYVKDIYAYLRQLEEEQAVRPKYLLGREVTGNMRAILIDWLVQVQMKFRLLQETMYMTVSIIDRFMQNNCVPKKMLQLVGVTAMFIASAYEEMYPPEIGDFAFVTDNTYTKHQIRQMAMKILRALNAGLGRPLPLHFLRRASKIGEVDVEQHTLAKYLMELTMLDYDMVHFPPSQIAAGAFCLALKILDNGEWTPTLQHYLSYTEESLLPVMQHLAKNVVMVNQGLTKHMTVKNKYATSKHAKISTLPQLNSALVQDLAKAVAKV
L3R: 0.57
L3W: 2.67
L7W: 0.0883
E11M: 2.69
L7C: 0.0403
L7Q: 0.0415
R5F: 0.361
F9K: 0.0723
S10Y: 2.72
F9L: 0.376
S8F: 1.91
L3I: 5.34
F9M: 0.528
S10F: 1.48
Q2R: 5
E11C: 3.18
R5D: -0.0571
F9I: -0.0876
Q2T: 4.74
S10I: 2.04
E11N: 3.25
Q2F: 4.03
E11F: 1.63
S10D: 4.76
D12N: 4.11

Set 4
Target: Interferon regulatory factor 7, full length, phosphomimetic (IRF7, Homo sapiens, UniProt Q92985, residues 1-503, S101K/S471D/S472D/S475D/S476D/S477D/S483D/S484D/S487D)
Method: protein-binding microarray
Molecule type: double-stranded DNA, one strand shown
Medium: in vitro
Concentration: 250 nM
Notes: 60-bp whole probe
With: salmon DNA 0.4 mg/ml
Relative to: random background probes
Direction: higher = stronger binding
Measurement: log fluorescence
Constant ends, left off below: GCCTAGCAC … GTCTTGATTCGCTTGACGCTGCTG
Residues (chain): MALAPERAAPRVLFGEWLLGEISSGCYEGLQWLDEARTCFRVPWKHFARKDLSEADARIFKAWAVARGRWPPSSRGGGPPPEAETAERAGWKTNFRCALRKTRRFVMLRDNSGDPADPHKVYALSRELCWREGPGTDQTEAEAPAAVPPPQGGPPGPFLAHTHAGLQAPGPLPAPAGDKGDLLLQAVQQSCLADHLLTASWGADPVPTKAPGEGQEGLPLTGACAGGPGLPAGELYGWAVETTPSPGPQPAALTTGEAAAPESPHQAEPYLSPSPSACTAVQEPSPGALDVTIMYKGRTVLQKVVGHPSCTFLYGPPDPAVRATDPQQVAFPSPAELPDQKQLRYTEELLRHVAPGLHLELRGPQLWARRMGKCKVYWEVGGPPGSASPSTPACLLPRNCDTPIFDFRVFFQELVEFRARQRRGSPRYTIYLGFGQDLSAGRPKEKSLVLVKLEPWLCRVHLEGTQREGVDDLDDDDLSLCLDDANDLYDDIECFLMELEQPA
CCATCTCTGCTCCTTCTGACAGTGCTA: 0.18 z-score
TTAGATCTCAGACTGGATTCGTGCTAG: 0.322 z-score
GACGCTTTCAGTCTCGAGACGTGCTAG: 0.882 z-score
GACAGTATCGGACTGGGGACGTGCTAG: -0.294 z-score
GACGGTTCCGGTTTCGGCACGTGCTAG: 6.23 z-score
GACGGACTGGGAATCGGGACGTGCTAG: -0.472 z-score
GACGGACTGGGGTTTCCGGACGTGCTA: -0.303 z-score
GACGGTTTCGGCTATCGGGACGTGCTA: 3.65 z-score
TCCAGCCTGTTTCCAGCAGGGTGCTAG: -0.105 z-score
GACAGTTCCGGTTTCGGGACGTGCTAG: 7.76 z-score
TTAGGTATCGACTGTCGGTTAGTGCTA: -0.0644 z-score
TTAGAACTGCGTATCGATTAGTGCTAG: -0.0342 z-score
TTAGGTTTCGGGTATGGGTTAGTGCTA: 6.51 z-score
TTAGGTATCGACTATCGTTTAGTGCTA: 0.47 z-score
GACGGACTGCTTTTCCTGAGGTGCTAG: 0.0615 z-score
GGCTCTCTGGACTGTGTGTTTGTGCTA: -0.654 z-score
GACGATCTCAGACGGGAGACGTGCTAG: -0.271 z-score
GAGGATTTCGGGTATCGAGACGTGCTA: 0.36 z-score
TCATTTTTCTGATTGAAACTGTGCTAG: 2.7 z-score
GACGGTCTCCCTATCCTGACGTGCTAG: 0.137 z-score

Set 5
Target: Centromere-binding protein 1, full length, N-terminal tag (CBF1, Saccharomyces cerevisiae, UniProt P17106, residues 1-351)
Chain of UniProt P17106 (whole entry, looked up): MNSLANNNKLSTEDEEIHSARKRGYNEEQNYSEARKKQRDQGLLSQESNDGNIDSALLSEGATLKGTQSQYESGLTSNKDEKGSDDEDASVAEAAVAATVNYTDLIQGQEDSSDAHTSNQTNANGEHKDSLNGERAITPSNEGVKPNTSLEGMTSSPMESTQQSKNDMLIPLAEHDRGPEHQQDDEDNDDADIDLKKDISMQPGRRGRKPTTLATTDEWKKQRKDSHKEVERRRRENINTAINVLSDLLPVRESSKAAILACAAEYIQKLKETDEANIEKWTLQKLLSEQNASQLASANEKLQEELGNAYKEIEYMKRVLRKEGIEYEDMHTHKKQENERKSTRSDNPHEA
Method: protein-binding microarray
Molecule type: double-stranded DNA, one strand shown
Medium: in vitro
Concentration: 0.8 µM
Notes: whole 60-bp probe, no competitor
Direction: higher = stronger binding
Measurement: fluorescence intensity
CTATTGAAAAACAGTCATCAGATGTTTGGGAAGTTCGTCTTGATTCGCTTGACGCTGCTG: 588 a.u.
CTACACGCTTTCACACACGCAATTTGAAATAGCTTCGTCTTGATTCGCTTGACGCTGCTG: 561 a.u.
GAATAAAGCGACAGTTCCGTGACGGTTACTATTTAGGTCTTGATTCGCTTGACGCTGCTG: 520 a.u.
CCTAACTACTATAATGCACGTGCATAGCTTCGTACAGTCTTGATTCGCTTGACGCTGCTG: 8770 a.u.
GAATTTTCCCAGAGACGCGTGGAAGCACCCATGTAGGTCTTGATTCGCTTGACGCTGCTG: 537 a.u.
GAATATCCATAGAATCATCACCGACCTGCGCAATAGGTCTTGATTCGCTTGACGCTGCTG: 536 a.u.
CTACGCTGTCAGCATCACCCTCACCTAAAGTGTTTCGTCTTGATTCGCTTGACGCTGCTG: 508 a.u.
CTACAGCTACGTGTGATCATATAATTCCTGCATTTCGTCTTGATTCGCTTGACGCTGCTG: 701 a.u.
GAAACGATGTTAGCGCACATGCTACATGACTTGTAGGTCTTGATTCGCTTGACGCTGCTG: 749 a.u.
GAACTAATCGGCATTGATGTTACACAAGGGAAATAGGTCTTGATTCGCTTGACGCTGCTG: 540 a.u.
CCTAACTACTATATTTACGTGTCATAGCTTCGTACAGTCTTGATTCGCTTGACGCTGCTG: 487 a.u.
CCTAACTACTATAGTGACTTTGAATAGCTTCGTACAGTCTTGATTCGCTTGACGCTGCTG: 516 a.u.
CTAGTTTTATTTACTGTCACCTTGATGAGCGACTTCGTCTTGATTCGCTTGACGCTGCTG: 538 a.u.
CTATGGAGGGCAAATCACGATAGGAAGAGGCATTTCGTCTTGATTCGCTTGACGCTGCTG: 554 a.u.
CTACTAATCATTATGCACGTCAAGATTCTCCGTTTCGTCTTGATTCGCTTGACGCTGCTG: 551 a.u.
CTAAGAAGAGAAAGTCACGGAATTGTCTACATATTCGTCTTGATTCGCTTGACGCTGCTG: 552 a.u.
